Measurements pooled from the literature.
Each line is one published result; not all experiments were run side by side. ± gives the spread as reported.
Organism: Plasmodium falciparum

CCc1nc2nc(C)cc(Nc3cc(C)cc(C)c3)n2n1  EC50 (parasite growth): 3350 ± 2000 nM
CCOCC(=O)N1CCC[C@H](C(=O)NCc2nc(-c3ccc(C#N)cc3)cs2)C1  EC50 (Dd2 β5 S28L resistant): 83 ± 32 nM
Cc1ccc(N(C)c2ccc(NC(=O)CN(C)c3ccccc3N3CCCC3=O)cc2)cc1  EC50 (parasite growth, LDH; 3D7 population D, CSC1 L954F; 72 h): 167 nM
CC(C)C[C@H](NC(=O)[C@H](Cc1c[nH]c2ccccc12)NC(=O)CN1CCOCC1)C(=O)N[C@H](/C=C/S(C)(=O)=O)Cc1c[nH]c2ccccc12  EC50 (SYBR Green; Dd2; 72 h): 22 ± 8.4 nM
Cc1cc(=O)oc2c1ccc1oc(C(O)c3ccc(Cl)cc3)c(C)c12 (stereo not drawn)  EC50 (parasite growth, SYBR Green; 3D7 wild type; 72 h): 65.1 ± 23 nM
CCOC(=O)Nc1ccc(NCc2ccc(F)cc2)nc1N  IC50 (3D7): 3160 nM
COc1ccccc1N1CCN(c2cccc(F)c2C#N)CC1  EC50 (parasite growth, SYBR Green; 3D7 DHODH E182D; 72 h): > 12500 nM
CC[C@H](C)[C@H](NC(=O)[C@H]([C@@H](C)CC)N(C)C(C)=O)C(=O)N[C@H](C(=O)N[C@@H](CC(C)C)C(=O)[C@@]1(C)CO1)[C@@H](C)O  EC50 (Dd2 β3 R190S resistant): 13 ± 2.1 nM
CCc1cc2c(cc1CC)CC(NC[C@@H](O)c1ccc(O)c3[nH]c(=O)ccc13)C2  EC50 (parasite growth, SYBR Green; 3D7 DHODH E182D; 72 h): 587 ± 110 nM
CCn1cc(-c2nc(C)no2)c(=O)c2cc(F)c(N3CCC(C)CC3)cc21  EC50 (parasite growth, [3H]hypoxanthine incorporation; 7G8; 72 h): 8 nM
CC(C)N(c1ccc(Cl)c(F)c1)c1ccc(NC(=O)CN(C)c2ccccc2N2CCCC2=O)cn1  EC50 (parasite growth, LDH; 3D7 population E, L562R mutant; 72 h): 17 nM
Cc1nnc(-c2ccc3ccn(CC(=O)Nc4ccccc4Cl)c3c2)o1  EC50 (parasite viability, SYBR Green flow cytometry; Cam3.1 multidrug-resistant; 48 h): 381 nM
Cc1ccc(N(c2ccc(NC(=O)CN(C)c3ccccc3N3CCCC3=O)cn2)C(C)C)cc1F  EC50 (parasite growth, LDH; 3D7 population A; 72 h): 9 nM
Cc1cc(NC2Cc3cc(F)c(F)cc3C2)n2nc(C(C)(F)F)nc2n1  EC50 (parasite growth; TM90C2B multidrug-resistant): 36 nM
COc1ccc(CCN(C)CCCC(C#N)(c2ccc(OC)c(OC)c2)C(C)C)cc1OC (stereo not drawn)  IC50 (7G8): 6310 nM

For quick reference, copied from above:
CC[C@H](C)[C@H](NC(=O)[C@H]([C@@H](C)CC)N(C)C(C)=O)C(=O)N[C@H](C(=O)N[C@@H](CC(C)C)C(=O)[C@@]1(C)CO1)[C@@H](C)O  EC50 (Dd2 β3 R190S resistant): 13 ± 2.1 nM
Cc1nnc(-c2ccc3ccn(CC(=O)Nc4ccccc4Cl)c3c2)o1  EC50 (parasite viability, SYBR Green flow cytometry; Cam3.1 multidrug-resistant; 48 h): 381 nM
